{"data": "Earlier results that unrelated publications cite", "note": "Protocols differ between the studies behind these lines.", "sequence of UniProt Q86Y07 (whole entry, looked up)": "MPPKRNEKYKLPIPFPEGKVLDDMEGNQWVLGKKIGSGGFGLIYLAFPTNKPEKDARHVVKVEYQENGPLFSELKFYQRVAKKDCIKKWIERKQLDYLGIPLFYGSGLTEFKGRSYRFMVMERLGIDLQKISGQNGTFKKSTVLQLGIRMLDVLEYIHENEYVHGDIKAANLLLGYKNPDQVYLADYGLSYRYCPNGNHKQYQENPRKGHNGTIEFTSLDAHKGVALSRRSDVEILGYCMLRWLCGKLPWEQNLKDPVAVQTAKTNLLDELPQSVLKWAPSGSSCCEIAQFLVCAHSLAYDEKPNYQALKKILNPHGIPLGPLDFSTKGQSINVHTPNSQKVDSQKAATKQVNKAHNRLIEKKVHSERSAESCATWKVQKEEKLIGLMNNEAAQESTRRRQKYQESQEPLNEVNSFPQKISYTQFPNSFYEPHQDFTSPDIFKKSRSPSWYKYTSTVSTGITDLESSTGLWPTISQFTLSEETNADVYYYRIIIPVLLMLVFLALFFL"}
{"Structure (SMILES)": "CCN1CCN(C(=O)N[C@@H](C(=O)N[C@@H]2C(=O)N3[C@@H]2SC(C)(C)[C@@H]3C(=O)O)c2ccccc2)C(=O)C1=O", "target or system": "Escherichia coli", "strain": "ATCC BAA-2469", "measurement": "MIC", "result": "1020 µg/mL"}
{"Structure (SMILES)": "Nc1cc(C(F)(F)F)c(-c2nc(N3CCOCC3)nc(N3CCOCC3)n2)cn1", "target or system": "Serine/threonine-protein kinase VRK2 (VRK2, Homo sapiens, UniProt Q86Y07)", "effect on": "enzyme activity", "concentration": "10 µM", "reference": "untreated", "measurement": "remaining activity", "result": "100%"}
{"Structure (SMILES)": "CC1(C)S[C@@H]2[C@H](NC(=O)[C@H](N)c3ccccc3)C(=O)N2[C@H]1C(=O)O", "target or system": "Escherichia coli", "strain": "clinical isolate RKI-No_314/16", "measurement": "MIC", "result": "> 16 µg/mL"}
{"Structure (SMILES)": "CO[C@H]1/C=C/O[C@@]2(C)Oc3c(C)c(O)c4c(O)c(c(/C=N/N5CCN(C)CC5)c(O)c4c3C2=O)NC(=O)/C(C)=C\\C=C\\[C@H](C)[C@H](O)[C@@H](C)[C@@H](O)[C@@H](C)[C@H](OC(C)=O)[C@@H]1C", "target or system": "Escherichia coli", "measurement": "MIC", "result": "4 µg/mL"}
{"Structure (SMILES)": "CN(C)c1cc(NC(=O)CNC(C)(C)C)c(O)c2c1C[C@H]1C[C@H]3[C@H](N(C)C)C(O)=C(C(N)=O)C(=O)[C@@]3(O)C(O)=C1C2=O", "target or system": "Escherichia coli", "strain": "ATCC BAA-2469", "measurement": "MIC", "result": "0.5 µg/mL"}
{"Structure (SMILES)": "CC1(C)S[C@@H]2[C@H](NC(=O)[C@H](N)c3ccc(O)cc3)C(=O)N2[C@H]1C(=O)O", "target or system": "Escherichia coli", "measurement": "MIC", "result": "32 µg/mL"}
{"Structure (SMILES)": "NC[C@H]1O[C@H](O[C@H]2[C@H](O)[C@@H](O[C@H]3O[C@H](CO)[C@@H](O)[C@H](N)[C@H]3O)[C@H](N)C[C@@H]2N)[C@H](N)C[C@@H]1O", "target or system": "Escherichia coli", "strain": "ATCC BAA-2469", "measurement": "MIC", "result": "1020 µg/mL"}
{"Structure (SMILES)": "Cc1cc(C)nc(NS(=O)(=O)c2ccc(N)cc2)n1", "target or system": "Escherichia coli", "measurement": "MIC", "result": "16 µg/mL"}
{"Structure (SMILES)": "CNC(C)C1CCC(N)C(OC2C(N)CC(N)C(OC3OCC(C)(O)C(NC)C3O)C2O)O1 (stereo not shown)", "target or system": "Escherichia coli", "strain": "clinical isolate RKI-No_443/16", "measurement": "MIC", "result": "4 µg/mL"}
{"Structure (SMILES)": "CC[C@H](C)CCCCC(=O)N[C@@H](CCN)C(=O)N[C@H](C(=O)N[C@@H](CCN)C(=O)N[C@H]1CCNC(=O)[C@H]([C@@H](C)O)NC(=O)[C@H](CCN)NC(=O)[C@H](CCN)NC(=O)[C@H](CC(C)C)NC(=O)[C@@H](CC(C)C)NC(=O)[C@H](CCN)NC1=O)[C@@H](C)O", "target or system": "Escherichia coli", "strain": "ATCC 25922", "measurement": "MIC", "result": "0.25 to 1 µg/mL"}
{"Structure (SMILES)": "C[C@H]1c2cccc(O)c2C(=O)C2=C(O)[C@]3(O)C(=O)C(C(N)=O)=C(O)[C@@H](N(C)C)[C@@H]3[C@@H](O)[C@@H]21", "target or system": "Escherichia coli", "measurement": "MIC", "result": "32 µg/mL"}
{"Structure (SMILES)": "Oc1ccc(-c2nc(-c3ccc(OC4CCCC4)cc3)no2)cc1", "target or system": "Escherichia coli", "strain": "ATCC 25922", "measurement": "MIC", "result": "> 128 µg/mL"}
{"Structure (SMILES)": "CC(C)(O/N=C(\\C(=O)N[C@@H]1C(=O)N2C(C(=O)[O-])=C(C[n+]3ccccc3)CS[C@H]12)c1csc(N)n1)C(=O)O", "target or system": "Escherichia coli", "strain": "clinical isolate RKI-No_525/16", "measurement": "MIC", "result": "≤ 2 µg/mL"}
{"note": "Excerpt of the above:"}
{"Structure (SMILES)": "NC[C@H]1O[C@H](O[C@H]2[C@H](O)[C@@H](O[C@H]3O[C@H](CO)[C@@H](O)[C@H](N)[C@H]3O)[C@H](N)C[C@@H]2N)[C@H](N)C[C@@H]1O", "target or system": "Escherichia coli", "strain": "ATCC BAA-2469", "measurement": "MIC", "result": "1020 µg/mL"}
{"Structure (SMILES)": "CCN1CCN(C(=O)N[C@@H](C(=O)N[C@@H]2C(=O)N3[C@@H]2SC(C)(C)[C@@H]3C(=O)O)c2ccccc2)C(=O)C1=O", "target or system": "Escherichia coli", "strain": "ATCC BAA-2469", "measurement": "MIC", "result": "1020 µg/mL"}
